Experimental data pooled from the literature.
Numbered parts are unrelated; each lists some results of a single study. Values joined by “and” are separate records of one study, mostly repeats; a detail may differ.
Sequence of UniProt O75676 (whole entry, looked up): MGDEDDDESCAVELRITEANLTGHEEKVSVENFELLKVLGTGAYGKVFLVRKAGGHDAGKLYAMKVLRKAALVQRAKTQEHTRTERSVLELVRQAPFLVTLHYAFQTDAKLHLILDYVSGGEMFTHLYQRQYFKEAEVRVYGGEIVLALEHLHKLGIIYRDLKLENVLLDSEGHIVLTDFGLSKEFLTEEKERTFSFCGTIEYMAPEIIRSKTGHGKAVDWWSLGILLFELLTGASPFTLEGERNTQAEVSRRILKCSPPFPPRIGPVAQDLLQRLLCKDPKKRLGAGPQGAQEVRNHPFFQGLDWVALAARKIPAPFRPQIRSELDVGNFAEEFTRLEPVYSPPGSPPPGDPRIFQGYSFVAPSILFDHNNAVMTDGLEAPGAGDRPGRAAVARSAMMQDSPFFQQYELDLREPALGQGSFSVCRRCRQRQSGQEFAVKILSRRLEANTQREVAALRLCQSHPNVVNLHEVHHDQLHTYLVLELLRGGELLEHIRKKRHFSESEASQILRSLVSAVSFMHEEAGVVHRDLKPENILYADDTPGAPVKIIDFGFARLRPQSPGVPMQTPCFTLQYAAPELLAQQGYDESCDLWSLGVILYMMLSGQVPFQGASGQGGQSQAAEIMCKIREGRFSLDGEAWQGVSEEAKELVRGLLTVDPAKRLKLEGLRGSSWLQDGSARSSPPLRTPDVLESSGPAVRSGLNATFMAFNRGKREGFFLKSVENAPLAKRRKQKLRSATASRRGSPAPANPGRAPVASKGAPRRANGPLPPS
Sequence of UniProt Q96Q40 (whole entry, looked up): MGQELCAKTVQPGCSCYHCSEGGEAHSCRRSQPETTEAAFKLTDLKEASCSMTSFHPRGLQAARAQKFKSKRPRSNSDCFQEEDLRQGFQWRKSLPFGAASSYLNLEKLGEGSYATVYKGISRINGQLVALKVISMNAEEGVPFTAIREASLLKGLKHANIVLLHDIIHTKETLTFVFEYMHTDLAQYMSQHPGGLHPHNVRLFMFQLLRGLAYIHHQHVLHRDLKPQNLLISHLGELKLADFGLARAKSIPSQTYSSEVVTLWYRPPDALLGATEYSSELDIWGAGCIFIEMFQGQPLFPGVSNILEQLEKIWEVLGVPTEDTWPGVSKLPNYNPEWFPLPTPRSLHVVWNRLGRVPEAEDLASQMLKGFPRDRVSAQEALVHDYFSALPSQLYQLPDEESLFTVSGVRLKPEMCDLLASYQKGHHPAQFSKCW
Sequence of UniProt Q86YV6 (whole entry, looked up): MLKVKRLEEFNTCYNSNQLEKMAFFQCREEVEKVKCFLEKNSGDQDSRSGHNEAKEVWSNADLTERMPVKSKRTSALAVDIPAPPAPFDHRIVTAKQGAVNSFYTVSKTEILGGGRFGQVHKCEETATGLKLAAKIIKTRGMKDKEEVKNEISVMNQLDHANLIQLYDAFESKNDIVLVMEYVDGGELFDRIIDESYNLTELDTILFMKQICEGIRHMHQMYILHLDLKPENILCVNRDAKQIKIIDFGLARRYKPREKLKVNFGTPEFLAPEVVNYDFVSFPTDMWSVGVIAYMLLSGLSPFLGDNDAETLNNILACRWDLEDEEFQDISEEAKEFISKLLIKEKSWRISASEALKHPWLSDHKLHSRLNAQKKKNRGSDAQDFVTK
Sequence of UniProt P51956 (whole entry, looked up): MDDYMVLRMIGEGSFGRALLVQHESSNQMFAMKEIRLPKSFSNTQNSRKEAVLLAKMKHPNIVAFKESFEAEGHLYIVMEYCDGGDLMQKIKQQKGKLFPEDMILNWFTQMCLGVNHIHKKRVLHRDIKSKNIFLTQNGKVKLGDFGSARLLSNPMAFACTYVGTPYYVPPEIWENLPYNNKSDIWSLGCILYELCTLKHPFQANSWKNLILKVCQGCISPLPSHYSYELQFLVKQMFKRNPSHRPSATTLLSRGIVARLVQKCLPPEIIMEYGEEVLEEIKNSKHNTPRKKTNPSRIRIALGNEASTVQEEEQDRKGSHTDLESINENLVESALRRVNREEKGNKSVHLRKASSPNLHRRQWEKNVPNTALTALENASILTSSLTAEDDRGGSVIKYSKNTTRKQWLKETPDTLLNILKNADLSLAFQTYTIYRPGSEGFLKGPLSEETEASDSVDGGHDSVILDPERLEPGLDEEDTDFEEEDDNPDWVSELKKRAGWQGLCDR
Sequence of UniProt Q00535 (whole entry, looked up): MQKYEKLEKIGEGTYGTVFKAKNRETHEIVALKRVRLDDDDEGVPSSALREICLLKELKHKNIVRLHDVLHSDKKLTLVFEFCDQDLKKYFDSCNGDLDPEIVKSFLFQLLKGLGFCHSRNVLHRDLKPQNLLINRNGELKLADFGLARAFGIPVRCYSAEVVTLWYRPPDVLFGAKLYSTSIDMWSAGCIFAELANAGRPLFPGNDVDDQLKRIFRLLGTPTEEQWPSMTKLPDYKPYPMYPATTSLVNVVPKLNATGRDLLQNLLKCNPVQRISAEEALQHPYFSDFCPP
Sequence of UniProt Q9H4B4 (whole entry, looked up): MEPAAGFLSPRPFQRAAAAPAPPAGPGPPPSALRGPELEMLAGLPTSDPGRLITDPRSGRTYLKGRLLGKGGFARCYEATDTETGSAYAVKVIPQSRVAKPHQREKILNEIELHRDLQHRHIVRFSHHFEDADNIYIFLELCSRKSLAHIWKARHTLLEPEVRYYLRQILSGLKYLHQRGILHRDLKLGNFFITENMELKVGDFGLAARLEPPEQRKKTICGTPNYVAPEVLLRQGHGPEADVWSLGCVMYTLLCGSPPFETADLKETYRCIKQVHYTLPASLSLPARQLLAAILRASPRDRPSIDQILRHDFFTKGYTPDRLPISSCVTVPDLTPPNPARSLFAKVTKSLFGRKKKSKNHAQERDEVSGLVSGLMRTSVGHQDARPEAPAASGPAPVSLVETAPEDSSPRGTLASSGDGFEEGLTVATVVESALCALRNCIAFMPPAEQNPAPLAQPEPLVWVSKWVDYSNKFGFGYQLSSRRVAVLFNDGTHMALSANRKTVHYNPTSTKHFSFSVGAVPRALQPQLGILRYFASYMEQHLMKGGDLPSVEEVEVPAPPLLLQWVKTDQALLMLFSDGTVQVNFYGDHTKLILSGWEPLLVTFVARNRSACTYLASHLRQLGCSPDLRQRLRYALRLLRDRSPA
Sequence of UniProt P50750 (whole entry, looked up): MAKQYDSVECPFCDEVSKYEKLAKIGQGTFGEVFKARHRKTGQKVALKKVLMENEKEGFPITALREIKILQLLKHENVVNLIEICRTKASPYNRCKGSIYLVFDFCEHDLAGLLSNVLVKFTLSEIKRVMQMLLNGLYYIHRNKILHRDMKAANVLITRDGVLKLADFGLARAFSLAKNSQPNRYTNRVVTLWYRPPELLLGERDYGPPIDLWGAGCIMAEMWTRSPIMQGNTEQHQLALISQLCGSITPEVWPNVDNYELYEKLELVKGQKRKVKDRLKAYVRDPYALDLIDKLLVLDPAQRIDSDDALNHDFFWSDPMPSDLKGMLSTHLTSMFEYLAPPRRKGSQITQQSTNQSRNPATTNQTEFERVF
Sequence of UniProt P08581 (whole entry, looked up): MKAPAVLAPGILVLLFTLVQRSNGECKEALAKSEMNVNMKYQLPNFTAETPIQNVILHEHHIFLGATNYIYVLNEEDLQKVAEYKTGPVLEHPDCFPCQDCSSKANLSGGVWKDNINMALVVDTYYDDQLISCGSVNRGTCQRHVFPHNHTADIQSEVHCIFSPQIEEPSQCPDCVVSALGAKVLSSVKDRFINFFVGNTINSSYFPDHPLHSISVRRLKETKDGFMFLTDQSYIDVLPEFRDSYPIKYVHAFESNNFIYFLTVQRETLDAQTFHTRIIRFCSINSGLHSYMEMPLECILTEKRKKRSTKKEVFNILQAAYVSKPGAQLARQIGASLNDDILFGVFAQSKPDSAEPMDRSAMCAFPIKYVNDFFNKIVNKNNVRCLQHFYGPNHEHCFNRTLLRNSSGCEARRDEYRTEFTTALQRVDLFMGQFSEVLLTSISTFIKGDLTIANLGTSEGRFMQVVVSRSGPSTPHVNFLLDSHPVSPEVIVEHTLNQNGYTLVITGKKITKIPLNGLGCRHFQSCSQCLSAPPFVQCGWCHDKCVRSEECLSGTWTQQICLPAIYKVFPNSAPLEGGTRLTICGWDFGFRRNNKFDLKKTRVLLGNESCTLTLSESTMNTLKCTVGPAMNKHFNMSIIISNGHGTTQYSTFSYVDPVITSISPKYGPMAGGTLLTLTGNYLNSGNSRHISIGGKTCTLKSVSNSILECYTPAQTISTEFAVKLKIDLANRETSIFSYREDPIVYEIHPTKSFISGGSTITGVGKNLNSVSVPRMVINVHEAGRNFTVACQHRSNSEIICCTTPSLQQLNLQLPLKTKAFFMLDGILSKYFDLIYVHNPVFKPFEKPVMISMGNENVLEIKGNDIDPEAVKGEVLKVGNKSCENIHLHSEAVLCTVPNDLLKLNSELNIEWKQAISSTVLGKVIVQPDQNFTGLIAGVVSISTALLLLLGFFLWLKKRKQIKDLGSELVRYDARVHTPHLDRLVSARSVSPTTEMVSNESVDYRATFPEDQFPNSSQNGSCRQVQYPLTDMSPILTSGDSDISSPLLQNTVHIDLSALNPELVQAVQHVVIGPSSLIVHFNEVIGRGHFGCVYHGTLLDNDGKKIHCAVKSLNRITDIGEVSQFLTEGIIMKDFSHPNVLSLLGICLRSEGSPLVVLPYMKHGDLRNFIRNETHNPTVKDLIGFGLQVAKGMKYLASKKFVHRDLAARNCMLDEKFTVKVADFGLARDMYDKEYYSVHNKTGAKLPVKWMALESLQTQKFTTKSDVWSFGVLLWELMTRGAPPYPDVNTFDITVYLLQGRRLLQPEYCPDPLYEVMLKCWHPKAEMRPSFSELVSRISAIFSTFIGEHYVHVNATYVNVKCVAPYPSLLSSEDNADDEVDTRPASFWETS

Sample 1 — read-out: enzyme activity; action: inhibitor; concentration: 0.5 µM; reference: control; endpoint: remaining activity
SMILES: O=C(c1cc2cc(O)ccc2[nH]1)c1cc2cc(O)ccc2[nH]1
RPS6KA4 (Homo sapiens, UniProt O75676): 81.3%
PLK3 (Homo sapiens, UniProt Q9H4B4): 101%
PNCK (Homo sapiens, UniProt Q6P2M8): 105%
MAPK1 (Homo sapiens, UniProt P28482): 113%
Cyclin-dependent kinase 9, with cyclin K (CDK9, Homo sapiens, UniProt P50750): 49.5%
MINK1 (Homo sapiens, UniProt Q8N4C8): 9.87%
AKT2 (Homo sapiens, UniProt P31751): 104%
MET (Homo sapiens, UniProt P08581): 89.2%
CDC42BPB (Homo sapiens, UniProt Q9Y5S2): 96.2%
NEK3 (Homo sapiens, UniProt P51956): 111%
CLK3 (Homo sapiens, UniProt P49761): 24.8%
KDR (Homo sapiens, UniProt P35968): 69.9%
ROCK1 (Homo sapiens, UniProt Q13464): 96.2%

Sample 2 — technique: competition with immobilised ligand; concentration: 1 µM; endpoint: remaining binding
SMILES: O=C(O)[C@H]1[C@H](Cn2nnc3ccccc3c2=O)CC[C@@H]1C(=O)c1ccc(OCCC2CCOCC2)cc1
IRAK3 (Homo sapiens, UniProt Q9Y616); cell-free assay: 77%
CDK15 (Homo sapiens, UniProt Q96Q40); cell-free assay: 100%
STK32A (Homo sapiens, UniProt Q8WU08); binding: 88%
MUSK (Homo sapiens, UniProt O15146); cell-free assay: 95%
CDK5 (Homo sapiens, UniProt Q00535); cell-free assay: 100%
PIP5K1A (Homo sapiens, UniProt Q99755); cell-free assay: 88%

Sample 3 — read-out: kinase–CDC37 interaction; endpoint: EC50
Compound: CCCS(=O)(=O)Nc1ccc(F)c(C(=O)c2c[nH]c3ncc(-c4ccc(Cl)cc4)cc23)c1F
MYLK4 (Homo sapiens, UniProt Q86YV6): 1070 nM
PDGFRA (Homo sapiens, UniProt P16234); inhibitor; human cells; FIP1L1-PDGFRA fusion kinase: 5380 nM
ARAF (Homo sapiens, UniProt P10398); inhibitor; human cells; kinome plate 1@A11: 290 nM

Sample 4 — endpoint: inhibition
SMILES: COc1cc(C(=O)N2CCC(N3CCN(C)CC3)CC2)ccc1Nc1ncc2c(n1)N(C)c1ccccc1C(=O)N2C
human PBMC; probe labeling, inhibitor, KiNativ profiling, item: WQGNDIVVkVLK; cell lysate; concentration not given, LYS1 site, together with: ATP acyl-phosphate probe: 7.4%
PIP4K2A and PIP4K2B human; KiNativ profiling; human PBMC; 0.1 µM, ATP site, together with: ATP acyl phosphate probe: -8.6% and 1.2%
NEK6 and NEK7 human; KiNativ profiling; human PBMC; 1 µM, LYS2 site, together with: ADP acyl phosphate probe: 9.6%
mouse MER and TYRO3; probe labelling, KiNativ ATP probe; mouse brain lysate; 1 µM: 6.7%
PIK3CB human; KiNativ profiling; human PBMC; 0.1 µM, ATP site, together with: ATP acyl phosphate probe: 4.4%
MLK2 (mouse); probe labelling, KiNativ ADP probe; mouse brain lysate; 1 µM, LYS1 labelled site: 7.4%
probe labelling, KiNativ profiling, item: TSTQEYAAkIINTK peptide; human PBMC lysate; concentration not given, Lys1 site, together with: ADP acyl phosphate probe: 16.7%

Other studies, line by line
COc1ccc(-c2c(Nc3ccccn3)[nH]c3c(C4=CCCCC4)c(-c4ccccc4)nn3c2=O)cc1 — AUC extrapolated, observed (human, plasma; oral, 200 mg twice daily): 93.1% and 84.7% and 89.6%

A few entries again (sample 1):
ROCK1 (Homo sapiens, UniProt Q13464): 96.2%
Cyclin-dependent kinase 9, with cyclin K (CDK9, Homo sapiens, UniProt P50750): 49.5%
